# Measured values of several laboratories.
# Numbered parts are unrelated; each lists some results of a single study. Changes are numbered by the printed parent chain.

# Series 1
# Target: RNA binding protein fox-1 homolog 2, RRM domain, GST-SBP tag (RBFOX2, Homo sapiens, UniProt O43251-10, residues 100-194)
# Method: RNA Bind-n-Seq
# Form: RNA
# Sample: in vitro
# Tested at: 365 nM
# Setting: natural RNA segment, single round, ends assumed
# Relative to: no-protein control
# Reading: higher = stronger binding
# Constant ends, left off below: GGGAGUUCUACAGUCCGACGAUC … UGGAAUUCUCGGGUGCCAA
# Target sequence (chain): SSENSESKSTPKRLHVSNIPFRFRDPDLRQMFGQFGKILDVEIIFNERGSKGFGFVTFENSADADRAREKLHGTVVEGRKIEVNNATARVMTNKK
Oligonucleotide,RBNS enrichment (R)
AGAUACAGACCAAUUAGUUUAGAUCAAAUCACCUUCCACUUGGGCUACUUGUGACUUUCCAACCUGGUAACUUCCACUGAAUUCUGGAAAGAGAAAUUCUUGAGGACCCU,0.358
AGCCGUUGCAGCCCCACGUUGUGCUCUAGGCAGGGACCUUUGGCCCCUUUGGGGAGGGAGAGACAGACGGGCGGUUUGACUUGGACACAAAGAAAGCCUUGGUUUCUAAG,0.751
UGUGUGUAGACAUUGUAUUCCACAAUUUUGAAUGGCUGUGUUUUACCUCUAAAUAAAUGAAUUCAGAAAAGUGUGUAGUGUACUGAUUAUUUAGCAGCUUAACUUUAGGU,1.63
ACUAGGACUAUGACCUCCACGGCGGCUGUUUAGGUCUCGACUUACAUCAGAAUCUUGCACAGCAUUGCAAAAUCCCAGUGCUCCCUCUAGGACACACUGACCAAAAUAUG,0.194
UUACCUUACAACCUUUCCAUUAUUCAGACAUUUGUAAAGUCAUUUCAUCCCAAAUACUUAACCUCAUUCUUUAGUAAUGGUGUAGGUGGAUUGGCUCAGGUUUAAUACAU,0.258
CCCUCUGUGCCUGUAGGAAUGCUCAGUGGAGCUGACCGAGGAAGAAAAUAAAAGAGCCAGUCAUUGAGCCUUGGUUUCUGAAUGUCUGUGAGGAUGCUGUGGGUGGGGGC,0.917
AUUCCAGCAGCACCUUUAAAGCAAUCUUUACCUUAGUUUUUUGAGUUGUUUUACCUUUCAUCCCAAUCUGAAAAGUUUUAAUAAAUGCUGAGCUUAUUCUUAGGGUAUGA,0.432
UUUGAGAUCACUUUUAUUUUUGAAAUGGCCUUUGUUCAUUGUAUUGUGAUCCAAUAACACUUUGUAUUAAAUUGUUUAGCAGCCAUUUGUGUUGUGAAGGGGUAGAAGAU,0.48
GGUGCGAGGUGUCGGUUCCCUCCUGUCCUGUGGUCCUGCCCCUGGGAUGGGGGUGCCUUGCUCCAGCGGGCUGCAGAUCCCAGCACUGGCGUGACUGACGGCUGAGGCCU,0.577
CUAAUUCUAUCACGAAUGUUCUUGUCUGUGUACAGUUUUUAGAACAUUACAAAGGAUUUGUUUGCUUAGCUGUCAACAAAAAGAAAACCUGAGGGAGCAUUCAGCAAGUC,0.332
AUCUUGCUACCCGCUUUUGCCUGACUCAGACUCCAGCUCUCAUACAGCUCUGUCUGCCACACACGUGCAAGCAAUUGUGAUUUAGAGUCACCUCCUAUCCCAUUUGAUCU,0.288
ACUCUCCAGUGUUGUCCAAGGAAAUGUAGAAUCAGUUUGUAGAUAGAUAAAAUAAUCUUUAUUAUAAUGACCAGUUUUGUGCCACAUUGUUGGUGGCGAUCGACCAGAUG,0.878

# Series 2
# Target: Histone acetyltransferase KAT6A, winged helix 2, GST fusion (KAT6A, Homo sapiens, UniProt Q92794, residues 85-181)
# Method: protein binding microarray
# Form: double-stranded DNA, one strand shown
# Sample: in vitro
# Tested at: not given
# Setting: 8-mer, flanks averaged, mean of 2 arrays, mostly near background
# Relative to: not given
# Reading: higher = stronger binding
# Construct (chain): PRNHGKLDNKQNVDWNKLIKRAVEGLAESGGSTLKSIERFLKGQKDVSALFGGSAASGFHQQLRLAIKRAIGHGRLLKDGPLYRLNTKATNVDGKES
Oligonucleotide,E-score
TTAGCCAA,-0.0289
CCTGAGAC,0.0749
AAACTGTG,0.102
TTAGACAA,0.0233
GTGCAAAA,0.0595
AATGCTCA,0.0436
CATTGTCC,-0.0918
GGGCGTAA,-0.151
AAACCGGC,0.104
AAGTTGAG,-0.109
CCTCGATA,0.0847
CTCTGAAG,-0.0129
AACATTTG,-0.107
ACGTGGTA,-0.0806
CCCGGACG,0.0817

# Series 3
# Target: CCNB3, cyclin fold, Cln2 fusion (human)
# Method: yeast growth competition, sequencing
# Sample: yeast
# Setting: weak parent motif
# Relative to: not given
# Reading: higher = stronger binding
# Parent: MICAL3 docking peptide (human); LQLRRQLSFSEDS; partner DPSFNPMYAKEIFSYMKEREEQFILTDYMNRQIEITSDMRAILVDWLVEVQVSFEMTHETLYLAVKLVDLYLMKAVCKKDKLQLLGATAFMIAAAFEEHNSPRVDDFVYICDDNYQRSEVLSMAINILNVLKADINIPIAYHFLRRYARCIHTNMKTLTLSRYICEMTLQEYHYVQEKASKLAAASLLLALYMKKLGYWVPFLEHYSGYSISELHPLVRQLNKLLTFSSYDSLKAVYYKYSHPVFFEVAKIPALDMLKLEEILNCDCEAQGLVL
Variant,normalised enrichment score
LQLRRQLSFLEDS [S10L],0.312
LQLRRQLSFSADS [E11A],0.255
LQLRHQLSFSEDS [R5H],-0.314
LQLRRQLSFSEYS [D12Y],-0.0108
LQLRRQLSFIEDS [S10I],0.271
LQLRRQLSNSEDS [F9N],-0.278
LQLRRQLSFSRDS [E11R],0.546
LQLRRQLSFSQDS [E11Q],0.157
LQLRRQLSDSEDS [F9D],-0.31
LQLRRQLSFSVDS [E11V],0.165
LQLARQLSFSEDS [R4A],0.392
LQLRRKLSFSEDS [Q6K],0.869
LSLRRQLSFSEDS [Q2S],0.159
LQLRRQLSTSEDS [F9T],0.102
LQLRRQRSFSEDS [L7R],-0.143
LQLRRQLSFSGDS [E11G],0.341
LQLRRQLSFWEDS [S10W],-0.0604
LYLRRQLSFSEDS [Q2Y],0.166

# Series 4
# Target: ABI1, truncated, D143A, DHFR fusion (Arabidopsis thaliana)
# Method: DHFR PCA, deep sequencing
# Sample: yeast
# Setting: methotrexate growth selection, single substitutions
# Added: (+)-ABA 1.4 µM
# Relative to: wild-type fitted maximum
# Reading: higher = stronger binding
# Parent: PYL1, truncated, DHFR fusion (Arabidopsis thaliana); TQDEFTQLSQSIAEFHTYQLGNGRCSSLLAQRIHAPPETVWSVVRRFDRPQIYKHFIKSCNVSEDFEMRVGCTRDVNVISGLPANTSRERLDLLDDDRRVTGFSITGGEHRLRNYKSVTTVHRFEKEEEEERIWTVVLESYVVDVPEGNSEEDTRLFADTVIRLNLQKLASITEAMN; partner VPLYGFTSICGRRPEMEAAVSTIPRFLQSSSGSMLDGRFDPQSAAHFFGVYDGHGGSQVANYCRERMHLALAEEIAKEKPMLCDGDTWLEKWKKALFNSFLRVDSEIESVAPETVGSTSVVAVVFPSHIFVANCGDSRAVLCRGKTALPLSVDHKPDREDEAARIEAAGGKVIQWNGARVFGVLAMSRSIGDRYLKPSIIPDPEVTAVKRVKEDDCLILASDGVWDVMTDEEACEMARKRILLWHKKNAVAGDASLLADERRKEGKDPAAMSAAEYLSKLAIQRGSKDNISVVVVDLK
Variant,relative binding score
K58S,39.8%
D144P,-19.3%
S117N,-3.99%
E139N,10.7%
R111F,3.57%
F56L,35.8%
H34L,47.8%
D92I,5.03%
T1Q,61.1%
N114E,1.31%
A13T,41.4%
Q10V,46.7%
Q7C,62.2%

# Series 5
# Target: Sal-like protein 4, full length isoform A (SALL4, Homo sapiens, UniProt Q9UJQ4, residues 1-1053)
# UniProt Q9UJQ4, sequence (whole entry, looked up): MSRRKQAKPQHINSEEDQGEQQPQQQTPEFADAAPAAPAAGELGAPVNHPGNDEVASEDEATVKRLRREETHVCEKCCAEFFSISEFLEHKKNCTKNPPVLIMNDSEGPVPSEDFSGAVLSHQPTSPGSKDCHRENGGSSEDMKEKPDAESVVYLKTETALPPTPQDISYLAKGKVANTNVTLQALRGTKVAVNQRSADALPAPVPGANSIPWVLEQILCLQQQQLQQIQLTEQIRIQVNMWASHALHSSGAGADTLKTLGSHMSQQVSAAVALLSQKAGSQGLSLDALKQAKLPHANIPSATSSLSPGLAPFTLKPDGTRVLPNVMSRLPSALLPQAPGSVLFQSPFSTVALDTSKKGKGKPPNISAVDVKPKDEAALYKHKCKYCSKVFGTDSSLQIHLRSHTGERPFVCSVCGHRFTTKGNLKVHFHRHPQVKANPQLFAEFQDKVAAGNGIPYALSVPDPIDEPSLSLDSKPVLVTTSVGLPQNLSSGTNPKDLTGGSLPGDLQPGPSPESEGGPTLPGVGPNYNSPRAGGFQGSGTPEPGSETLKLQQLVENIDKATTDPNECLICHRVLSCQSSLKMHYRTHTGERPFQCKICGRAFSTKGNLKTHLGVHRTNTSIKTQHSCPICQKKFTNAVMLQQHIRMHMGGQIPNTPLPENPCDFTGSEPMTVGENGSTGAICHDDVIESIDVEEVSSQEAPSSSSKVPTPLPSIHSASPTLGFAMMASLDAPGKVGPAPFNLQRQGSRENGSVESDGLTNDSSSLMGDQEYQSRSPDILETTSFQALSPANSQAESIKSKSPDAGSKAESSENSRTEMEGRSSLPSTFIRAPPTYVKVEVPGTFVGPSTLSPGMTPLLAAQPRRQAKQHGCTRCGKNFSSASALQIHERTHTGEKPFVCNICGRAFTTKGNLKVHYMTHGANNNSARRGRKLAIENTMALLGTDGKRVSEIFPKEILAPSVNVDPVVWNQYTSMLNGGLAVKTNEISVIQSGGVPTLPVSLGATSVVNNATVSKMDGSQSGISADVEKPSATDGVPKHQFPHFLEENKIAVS
# Method: universal PBM
# Form: double-stranded DNA, one strand shown
# Sample: in vitro
# Tested at: 600 nM
# Setting: 8-mer, flanks averaged, mean of replicates
# Reading: higher = stronger binding
Oligonucleotide,E-score
ACCAGGGC,-0.328
ATCTTGGG,-0.0794
CCTACTAG,-0.0733
ACCGAAAA,0.158
GCGGCGTA,-0.222
TCCCTAGA,0.0121
CATGTACG,0.0977
CGAGTCCA,-0.229
GCCCCTCA,-0.305
GTTCCGGA,-0.222
AGAGGTGG,-0.0255
GATTTTGC,0.0156
AGCCTGCC,-0.311
AACGGTCA,-0.0414
CGCGTACA,-0.0654
AGATGGGA,0.00281
CAACTGGA,-0.205

# Series 6
# Target: Ras GTPase-activating protein-binding protein 1, C-terminal RGG region (G3BP1, Homo sapiens, UniProt Q13283)
# UniProt Q13283, sequence (whole entry, looked up): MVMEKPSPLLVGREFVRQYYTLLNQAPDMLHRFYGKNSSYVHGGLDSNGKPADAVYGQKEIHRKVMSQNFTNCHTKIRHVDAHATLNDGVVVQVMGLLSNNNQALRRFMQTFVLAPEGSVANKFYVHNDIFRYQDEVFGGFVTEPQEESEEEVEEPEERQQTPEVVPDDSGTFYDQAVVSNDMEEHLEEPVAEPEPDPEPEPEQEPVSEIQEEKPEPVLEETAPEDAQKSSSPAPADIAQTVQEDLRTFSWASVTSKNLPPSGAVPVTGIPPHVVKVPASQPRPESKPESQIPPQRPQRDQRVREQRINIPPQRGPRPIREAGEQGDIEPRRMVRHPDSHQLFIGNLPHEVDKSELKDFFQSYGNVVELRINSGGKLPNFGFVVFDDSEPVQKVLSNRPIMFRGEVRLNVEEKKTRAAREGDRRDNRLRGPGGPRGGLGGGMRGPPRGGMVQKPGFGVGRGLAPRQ
# Method: RNA Bind-n-Seq
# Form: RNA
# Sample: in vitro
# Tested at: 1 µM
# Setting: whole 134-nt RNA, ends assumed
# Added: 150 mM KCl
# Relative to: input library
# Reading: higher = stronger binding
# Constant ends, left off below: GGGAGUUCUACAGUCCGACGAUC … UGGAAUUCUCGGGUGUCAAGG
Oligonucleotide,log2 enrichment
CACAGACAACACGCACCCACACAGACACAGAGGGAAGGGGUUGGGAUAGGGACAGGGUGCACAGCAGGGCGGGGUAGGACCCCAGCCCCU,-0.813
UCAAGUCCUGUGCUACACAUCGUAUGUACCGAAUCGGGAGGGAGGGUUUUUGGGAAAGUAUUAUGUUACGCCGUUCGGAUCUGCACUUCC,1.87
CCUCAAGUCCUGUGCUACACAUCGUAUGUACCGAAUCGGCGGGGCGGCGGGGAAAGUAUUAUGUUACGCCGUUCGGAUCUGCACUUCCAG,-0.818
UAAAUUCAUCUGAAAAUGGUGAGGACAGGCACAAACGCAAAGAAAGAAAGUCAUCAAGAGGCAGAAGUCACUCAAGAUCUAGGUCUCGUG,-2.51
CUCAAGUCCUGUGCUACACAUCGUAUGUACCGAAUCGGGGUGGUGGGGUGGGGAAAGUAUUAUGUUACGCCGUUCGGAUCUGCACUUCCA,0.256
GUCCUGUGCUACACAUCGUAUGUACCGAAUCGGGGAAAGGGGAGGGGUUUUUUUGGGGAAAGUAUUAUGUUACGCCGUUCGGAUCUGCAC,2.18
UAACUUUAGAGGAGGAUCUGAUGGAUAUGGCAGUGGACGUGGAUUUGGGGAUGGCUAUAAUGGGUACGGAGGAGGACCUGGAGGUGGCAA,-0.677
UUCACAGGUAAGUGGGGCAGUGUCCGGACCAGUGGACGCAGCAGUGGCCUUGGCACCGAUGUGGGCUCCCGGCUAGCUGGCAGAGACGCG,0.314
ACCAUGCAGGUGGGCAUCUUUGGGAAGUGGGGCAAGGGGGGGAUAGGGAGGGGGCUAACACUUUGGGAACAGGUGGUCCCAGGUCGUUUC,1.8
GCAGGAAGUAAAAACAAAUGGAAAUGCUUCGGAUAGUGGCAGGGGUGGGGGUUGCUAAGGAAAGGGUGGGAUGGGAGUGGGGAAAGAGUU,0.592
AAGUCCUGUGCUACACAUCGUAUGUACCGAAUCGGGUGGGUUUUUGGGAAAAAGGGAAAGUAUUAUGUUACGCCGUUCGGAUCUGCACUU,-0.148
UAAUUAUGUUUUAUUUUCUUUAAUUGCAGGACUUCAUAGACCUCACGUUGUCGAAGACUCAACGAAAGACUCCAACCGUUAUUCAUAAAC,-0.676
UGGCCCUGGUGGCAUGCGGGGAGGAAGAGGUGGCCUCAUGGAUCGUGGUGGUCCUGGUGGAAUGUUCAGAGGUGGCCGUGGUGGAGACAG,1.93
CUCAAGUCCUGUGCUACACAUCGUAUGUACCGAAUCGGAAAGGUUUGGAAAGGAAAGUAUUAUGUUACGCCGUUCGGAUCUGCACUUCCA,-1.29

# Some of these lines once more (series 3):
Variant,normalised enrichment score
LQLRRQLSFSEYS [D12Y],-0.0108
LQLRRQLSFIEDS [S10I],0.271
LQLRRQLSNSEDS [F9N],-0.278
LQLRRQLSFSRDS [E11R],0.546
LQLRRQLSFSQDS [E11Q],0.157
LQLRRQLSDSEDS [F9D],-0.31
LQLRRQLSFSVDS [E11V],0.165
LQLARQLSFSEDS [R4A],0.392
LQLRRKLSFSEDS [Q6K],0.869
LSLRRQLSFSEDS [Q2S],0.159
LQLRRQLSTSEDS [F9T],0.102
LQLRRQRSFSEDS [L7R],-0.143
